Assay results collected from several papers.
Numbered parts are unrelated; each lists some results of a single study.

Block 1
Target: Ras GTPase-activating protein-binding protein 1, RRM domain (G3BP1, Homo sapiens, UniProt Q13283)
Chain of UniProt Q13283 (whole entry, looked up): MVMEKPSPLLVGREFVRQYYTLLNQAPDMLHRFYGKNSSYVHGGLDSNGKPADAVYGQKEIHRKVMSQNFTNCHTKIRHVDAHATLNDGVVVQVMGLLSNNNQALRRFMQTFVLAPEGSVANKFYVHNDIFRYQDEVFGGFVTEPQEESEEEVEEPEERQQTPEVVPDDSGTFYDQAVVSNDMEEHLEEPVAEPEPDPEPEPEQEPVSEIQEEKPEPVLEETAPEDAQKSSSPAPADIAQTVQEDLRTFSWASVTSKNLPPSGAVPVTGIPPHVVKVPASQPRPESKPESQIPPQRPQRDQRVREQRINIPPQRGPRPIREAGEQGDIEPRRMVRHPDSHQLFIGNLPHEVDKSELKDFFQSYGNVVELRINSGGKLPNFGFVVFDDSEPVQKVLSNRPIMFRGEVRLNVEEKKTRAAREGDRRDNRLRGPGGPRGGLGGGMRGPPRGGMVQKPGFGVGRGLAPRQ
Technique: RNA Bind-n-Seq
Form: RNA
Medium: in vitro
Concentration: 1 µM
Setting: whole 134-nt RNA, ends assumed
Together with: 150 mM KCl
Reference: input library
Reading: higher = stronger binding
Measurement: log2 enrichment
All sequences stand within: GGGAGUUCUACAGUCCGACGAUC … UGGAAUUCUCGGGUGUCAAGG
GCAGGAAGUAAAAACAAAUGGAACUGCUUCGGAUAGUGGCAGGGGUGGGGGUUGCUAAGGAAAGGGUGGGAUGGGAGUGGGUAAAGAGUU: 1.4
UAACCUUAGAGGAGGAUCUGAUGGAUAUGGCAGUGGACGUGGAUUUGGGGAUGGCUAUAAUGGGUAUGGAGGAGGACCUGGAGGUGGCAA: -0.613
UUGCUUCAAGAAGAUCCCUAAGCUGUAGAACAUUUUAACGUUGAUGCCACAACGCAGAUUGAUGCCUUGUAGAUGGAGCUUGCAGAUGGA: -0.198
AAGUCCUGUGCUACACAUCGUAUGUACCGAAUCGGGCCCGGGCCCGGGGCCCGGGGAAAGUAUUAUGUUACGCCGUUCGGAUCUGCACUU: -0.925
CCUGUGCUACACAUCGUAUGUACCGAAUCGGGGCCCCCCCGGCCCCCCCGGGCCCCCCCGGAAAGUAUUAUGUUACGCCGUUCGGAUCUG: -0.591
CCUGUGCUACACAUCGUAUGUACCGAAUCGGGGAAAGGGGUUUUUUUGGGGUUUUUGGGGAAAGUAUUAUGUUACGCCGUUCGGAUCUGC: 0.732
CCUGUGCUACACAUCGUAUGUACCGAAUCGGGGCCCCCCGGGCCCCCCGGGGCCCCCCGGGAAAGUAUUAUGUUACGCCGUUCGGAUCUG: -0.816
UCCUGUGCUACACAUCGUAUGUACCGAAUCGGGCCCCCCGGGGCCCCCCGGGCCCCCCGGAAAGUAUUAUGUUACGCCGUUCGGAUCUGC: -0.388
CUGUGCUACACAUCGUAUGUACCGAAUCGGGCCCCCCCGGGCCCCCCCGGGCCCCCCCGGGGAAAGUAUUAUGUUACGCCGUUCGGAUCU: -0.678

Block 2
Target: Prothrombin, mature alpha-thrombin (F2, Homo sapiens, UniProt P00734)
Technique: aptamer microarray, sandwich
Form: DNA with 2'F-ANA
Medium: in vitro
Concentration: 200 nM
Setting: whole 15-mer aptamer, many near background
Together with: Cy3 exosite-II aptamer, 400 nM
Reading: higher = stronger binding
Measurement: mean fluorescence intensity
Oligonucleotide: GGTTGGTGTGGTTGG
2'F-ANA at 2 3 8 9 11 12 14 15: 440 a.u.
2'F-ANA at 1 2 3 6 10 12 13 14 15: 54.2 a.u.
2'F-ANA at 3 4 5 6 7 10 12 14: 70.1 a.u.
2'F-ANA at 1 2 3 6 7 10 11: 59.3 a.u.
2'F-ANA at 1 3 6 8 9 10 11 12 13 15: 91.9 a.u.
2'F-ANA at 1 2 3 4 7 8 10 11 12 13: 64.3 a.u.
2'F-ANA at 1 3 5 6 13 14 15: 49.3 a.u.
2'F-ANA at 5 6 8 9 10 11 12 13: 91.2 a.u.

Block 3
Target: Sal-like protein 4, full length isoform B (SALL4, Homo sapiens, UniProt Q9UJQ4-2, residues 1-616)
Technique: universal PBM
Form: double-stranded DNA, one strand shown
Medium: in vitro
Concentration: not given
Setting: 8-mer, flanks averaged, mean of replicates
Reading: higher = stronger binding
Measurement: E-score
Residues (chain): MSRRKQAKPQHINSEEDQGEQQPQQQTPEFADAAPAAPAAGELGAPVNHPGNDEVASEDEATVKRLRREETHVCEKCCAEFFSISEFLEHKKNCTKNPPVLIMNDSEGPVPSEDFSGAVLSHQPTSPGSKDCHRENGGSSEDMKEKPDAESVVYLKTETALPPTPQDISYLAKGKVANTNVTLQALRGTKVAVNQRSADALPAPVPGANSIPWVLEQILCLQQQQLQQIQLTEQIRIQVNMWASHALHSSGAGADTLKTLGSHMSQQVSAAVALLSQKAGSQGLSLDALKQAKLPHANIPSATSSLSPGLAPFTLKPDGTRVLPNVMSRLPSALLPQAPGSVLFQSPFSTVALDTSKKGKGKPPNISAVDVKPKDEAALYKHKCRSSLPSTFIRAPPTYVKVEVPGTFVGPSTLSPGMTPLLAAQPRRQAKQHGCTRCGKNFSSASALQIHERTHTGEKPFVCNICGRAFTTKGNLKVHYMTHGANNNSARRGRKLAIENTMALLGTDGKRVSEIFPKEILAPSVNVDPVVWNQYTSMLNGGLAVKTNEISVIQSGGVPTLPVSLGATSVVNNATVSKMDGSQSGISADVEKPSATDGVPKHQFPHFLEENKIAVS
CCGTTGAC: -0.176
ATTCCTCA: 0.132
CGGGGGTA: -0.0333
GCCAGCAA: -0.14
ACGCATAT: 0.237
AGATAAGC: 0.0882
GAGCGTAA: 0.0845

Mixed results
PhoQ, residues 284 288 289 292 302 303 SLSVQF  fold induction (PhoP, residues 12 14 15 18 19 VHTVL (Escherichia coli, UniProt P23836); Sort-seq, refers to: YFP reporter; E. coli; PhoQ-PhoP variant library, together with: 10 µM Mg2+; reference: high Mg2+ state, higher = stronger signaling): 0.717

Repeated from above (block 2):
2'F-ANA at 1 2 3 6 10 12 13 14 15: 54.2 a.u.
